Published values from different studies.
Every numbered part comes from another study and shows a few of its results, in no order.

Series 1
Target: Centromere-binding protein 1, full length, His-tagged (CBF1, Saccharomyces cerevisiae, UniProt P17106, residues 1-351)
Sequence of UniProt P17106 (whole entry, looked up): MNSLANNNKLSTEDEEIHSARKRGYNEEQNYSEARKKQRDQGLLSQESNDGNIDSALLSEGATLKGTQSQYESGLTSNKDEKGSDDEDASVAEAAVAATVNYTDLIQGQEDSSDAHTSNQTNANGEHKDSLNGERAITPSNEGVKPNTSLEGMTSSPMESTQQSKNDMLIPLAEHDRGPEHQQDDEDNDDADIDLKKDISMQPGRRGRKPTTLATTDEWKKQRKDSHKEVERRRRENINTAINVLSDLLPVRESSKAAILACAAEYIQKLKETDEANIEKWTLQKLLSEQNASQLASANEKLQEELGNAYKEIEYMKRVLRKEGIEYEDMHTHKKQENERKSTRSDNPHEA
Technique: competition protein-binding microarray
Molecule type: double-stranded DNA, one strand shown
Sample: in vitro
Tested at: 2 µM
Setting: whole 60-bp probe, lowest competitor level
Added: Pho4 competitor, 0.05 µM
Reading: higher = stronger binding
Constant ends, left off below: … GTCTTGATTCGCTTGACGCTGCTG
For `AAATTACTAAGTTGTCACCCTACTTACCCCGTATGA`, the fluorescence intensity was 77.3 a.u.
`CTTTCCCGATCTTGTACTGTGGGTGTAGCACATTTG` gave a fluorescence intensity of 63 a.u.
With `TAAGGGAATGTCCATCACGTGAAGGAAAATTCAAGT` the fluorescence intensity was 3560 a.u.
`AAAGCGGTAATTTGAAAGGTGGGTGCAGATATCTAT` has a fluorescence intensity of 63.9 a.u.
With `CTAACGAAGGTTTGGTTGGTGGGTGACAAGCCAAGT` the fluorescence intensity was 75.2 a.u.
`GGGAGGGAAGACTGGAACGTGCAAAGAAGCTATTCG` has a fluorescence intensity of 99.3 a.u.
`AAAGCGGTAATTTGACAGGTGGGTGCAGATATCTAT` gave a fluorescence intensity of 71.6 a.u.
With `ATCATGGATGCCCTTTCCGTGATGGGAGTAACGAGA` the fluorescence intensity was 69.7 a.u.
`CTTCTGTAAATTTGAGTGGTGGGTGGACGCGCCCCG` gave a fluorescence intensity of 85.8 a.u.

Series 2
Target: Interferon regulatory factor 5, full length, phosphomimetic (IRF5, Homo sapiens, UniProt Q13568-2, residues 1-514, S451D/S453D/S456D/S462D)
Technique: protein-binding microarray
Molecule type: double-stranded DNA, one strand shown
Sample: in vitro
Tested at: 940 nM top
Setting: 60-bp whole probe
Added: salmon DNA 0.4 mg/ml
Reference: random background probes
Reading: higher = stronger binding
Constant ends, left off below: GCCTAGCAC … GTCTTGATTCGCTTGACGCTGCTG
`TTTCTTACATGCATCATAACGTGCTAG` — result for “fitted relative affinity”: 1.98 z-score.
`GACTGTCTCCTTTTCCTGACGTGCTAG`: “fitted relative affinity” 1.1 z-score.
`GACGGACTGCTAATGCTGACGTGCTAG`: “fitted relative affinity” -0.734 z-score.
`TTAGAACTGGGCTATCGATTAGTGCTA`: “fitted relative affinity” -0.552 z-score.
`GATGGTATCGACTTTCGGGACGTGCTA` — result for “fitted relative affinity”: 5.82 z-score.
For `TTAGGTCTGGACTTTCGGTTAGTGCTA`, “fitted relative affinity” read 2.52 z-score.
`TTAGAAATCAGTATCGATTAGTGCTAG`: “fitted relative affinity” 5.16 z-score.
`TCATGTTTTTTTCTACTACTGTGCTAG` — result for “fitted relative affinity”: 1.47 z-score.
`TTAGATTTCGTGACTGGATTAGTGCTA` — result for “fitted relative affinity”: 0.0925 z-score.
Under “fitted relative affinity”, `GACGGAGTGGACTTTCGGGACGTGCTA` is recorded as 0.537 z-score.

Series 3
Target: Histone acetyltransferase KAT6A, winged helix 1, GST fusion (KAT6A, Homo sapiens, UniProt Q92794, residues 1-85)
Technique: protein binding microarray
Molecule type: double-stranded DNA, one strand shown
Sample: in vitro
Tested at: not given
Setting: 8-mer, flanks averaged, mean of 2 arrays, mostly near background
Reference: not given
Reading: higher = stronger binding
Target sequence (chain): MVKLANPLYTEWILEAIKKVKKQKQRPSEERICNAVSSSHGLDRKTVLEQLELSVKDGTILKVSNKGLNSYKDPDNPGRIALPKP
`CAGAAAGC` gave an E-score of -0.056.
For `CAAACATA`, the E-score was -0.2.
For `ATGAGTGG`, the E-score was -0.186.
The E-score of `AGCAATAT` is reported as -0.193.
`ACTTGTCG` gave an E-score of 0.116.
`CTCGCAAA` has an E-score of -0.121.
The E-score of `GCTCGCTA` is reported as 0.0429.
For `CTCACTTC`, the E-score was -0.165.
The E-score of `ACAGTGTC` is reported as -0.00067.
With `GCAGTAGC` the E-score was 0.0473.
`ATAAATAG` gave an E-score of -0.0162.
`AGTGCGTA` gave an E-score of 0.0624.
`AGGGTCTG` gave an E-score of -0.166.
The E-score of `AGCCCCTC` is reported as -0.14.

Mixed results
The fold induction of `PhoQ, residues 284 288 289 292 302 303 SSTLLI` is reported as 7.64 (PhoP, residues 12 14 15 18 19 LWHSL (Escherichia coli, UniProt P23836); Sort-seq, item: YFP reporter; E. coli; PhoQ-PhoP variant library, added: 10 µM Mg2+; reference: high Mg2+ state, higher = stronger signaling).

Repeated from above (series 1):
`GGGAGGGAAGACTGGAACGTGCAAAGAAGCTATTCG` has a fluorescence intensity of 99.3 a.u.
With `CTAACGAAGGTTTGGTTGGTGGGTGACAAGCCAAGT` the fluorescence intensity was 75.2 a.u.
With `TAAGGGAATGTCCATCACGTGAAGGAAAATTCAAGT` the fluorescence intensity was 3560 a.u.
`AAAGCGGTAATTTGACAGGTGGGTGCAGATATCTAT` gave a fluorescence intensity of 71.6 a.u.
